Results collected from several papers.
Protocols differ between the studies behind these lines. Several values in a cell are separate wells, animals, samples, runs or records. Numbers after ± are the reported error.
GBA1 R534H: Lysosomal acid glucosylceramidase (GBA1, Homo sapiens, UniProt P04062, R534H)
Chain of UniProt P04062 (whole entry, unmodified, looked up): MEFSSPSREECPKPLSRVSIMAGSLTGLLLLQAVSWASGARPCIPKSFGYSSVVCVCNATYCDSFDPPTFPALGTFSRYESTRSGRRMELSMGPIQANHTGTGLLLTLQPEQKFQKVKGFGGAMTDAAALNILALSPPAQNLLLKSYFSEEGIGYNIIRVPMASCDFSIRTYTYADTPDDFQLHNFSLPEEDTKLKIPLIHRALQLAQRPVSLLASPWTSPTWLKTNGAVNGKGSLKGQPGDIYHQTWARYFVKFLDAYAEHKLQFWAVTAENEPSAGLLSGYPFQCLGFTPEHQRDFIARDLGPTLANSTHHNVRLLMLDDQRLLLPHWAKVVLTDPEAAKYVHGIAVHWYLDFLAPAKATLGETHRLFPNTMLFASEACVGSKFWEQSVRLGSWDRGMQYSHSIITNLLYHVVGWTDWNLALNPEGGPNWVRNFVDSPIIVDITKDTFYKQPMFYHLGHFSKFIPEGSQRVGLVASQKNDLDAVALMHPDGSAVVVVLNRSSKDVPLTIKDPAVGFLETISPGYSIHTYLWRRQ

`O=C(Nc1cnccc1-c1ccc([18F])cc1)c1ccnc(NC(=O)C2CC2)c1` gave an SUV of 0.38 (mice, transgenic, GSK-3β, early-stage, pancreas; intravenous, dose not given, 120 min, with: tariquidar 15 mg/kg i.v. pre-dose).
`COc1ccc(C(=O)OC2CCN(C)CC2)cc1` gave a relative translation of 100% (Trypanosoma cruzi; reporter mRNA translation, inhibitor, refers to: capped polyadenylated Renilla luciferase mRNA; cell-free extract; concentration not given; relative to: control RNA).
The tumour-to-tissue ratio of `CCCC[C@H](NC(=O)CNC(=O)CNC(=O)[C@H](CCCCNC(=O)[C@H](CC(=O)O)NC(=O)C(C)c1ccc(CC(C)C)cc1)NC(=O)CN1CCN(CC(=O)O)CCN(CC(=O)O)CCN(CC(=O)O)CC1)C(=O)N[C@H]1CC(=O)NCCCC[C@@H](C(N)=O)NC(=O)[C@H](Cc2c[nH]c3ccccc23)NC(=O)[C@H](CCCNC(=N)N)NC(=O)[C@@H](Cc2ccccc2)NC(=O)[C@H](Cc2c[nH]cn2)NC1=O` (stereo partly drawn) [lutetium-177 labelled] is reported as 2.7 (C57 mice, tumour; intravenous, 0.037 MBq, 0.5 h; relative to: blood).
`Cc1nc2cc(C(=O)N[C@@H](C)c3ccc(C(C)(C)C)cc3)ccc2n1Cc1cccc(OC(C)(C)C(=O)O)c1` gave a half-life of 43.2 min (human liver microsomes).
`Cc1nc(N)nc2c1C(=O)N[C@@H](c1ccc(F)cc1-c1cccc(O[11CH3])n1)C2` gave a tracer uptake of 12.6 ± 0.9 %ID (ex vivo biodistribution; mice, MDA-MB-231 subcutaneous xenograft, liver; 60 min post-injection, baseline, vehicle pre-treatment).
`Cc1c(Cc2cccc(OC(C)(C)C(=O)O)c2)c2ccc(C(=O)N[C@@H](C)c3cccc(C(C)(C)C)c3)cc2n1CC1CCC1` gave a half-life of 48 min (mouse liver microsomes; 1 µM, with: microsomes 1 mg/mL).
With `[11CH3]N1CCC(NC(=O)c2cc(-c3c(O)cc(O)cc3Oc3ccc([N+](=O)[O-])cc3)on2)CC1` the SUV was 1.2 ± 0.1 (Wistar rat, female, healthy, lungs; intravenous, 18.5 MBq, 30 min).
For `C=C[C@]1(C)C[C@@H](OC(=O)CSc2ccc(NC(=O)c3ccco3)cc2)[C@]2(C)[C@H](C)CC[C@]3(CCC(=O)[C@H]32)[C@@H](C)[C@@H]1O`, the plasma concentration was 110 ng/mL and 125 ng/mL and 116 ng/mL and 117 ng/mL and 165 ng/mL and 70.6 ng/mL and 108 ng/mL (Mycoplasma gallisepticum-infected chickens, plasma; intramuscular, 5 mg/kg, 4 h).
With `CN(C)S(=O)(=O)c1ccc(S(=O)(=O)N2CCC(n3c(=O)[nH]c4ccccc43)CC2)cc1` the body weight was 95.2% (mouse; intraperitoneal, 6 mg/kg, 2 day; relative to: day 0).
`CN(O)C(=O)CCC(=O)NCCCN(CCCCN(CCCNC(=O)CCC(=O)N(C)O)C(=O)CCC(=O)N(C)O)C(=O)CCC(=O)N(C)O.[89Zr]` has an intact complex of 99.4 ± 0.6% (radio-TLC; aqueous buffer; 5 d, pH 8.5, 37 °C, 89Zr-labelled complex, with: DTPA 1000-fold excess).
The AUC(0-inf) of `COc1cnc2cccc(N3CCc4c(cc(Cn5ccnc5)cc4-c4cn(C)nc4C(F)(F)F)C3=O)c2c1` is reported as 77500 ng·h/mL (male CD-1 mouse, plasma; intraperitoneal, 50 mg/kg).
With `O=C(Nc1cnccc1-c1ccc([18F])nc1)c1ccnc(NC(=O)C2CC2)c1` the SUV was 0.107 (mice, transgenic, GSK-3β, early-stage, salivary gland; intravenous, dose not given, 120 min).
`COCC1CN(C2CCN(c3cc(OC)c(Nc4ncc(Br)c(Nc5ccc6c(c5P(C)(C)=O)OCCO6)n4)cc3C)CC2)C1` gave an adverse events of 100% (first-in-human trial; human; oral, 240 mg once daily; any treatment-related).
For `CN1CCCNC(=O)c2cccc(c2)C(=O)NCCCN(C)CCCNc2cccc3c2C(=O)c2cccc(c2C3=O)NCCC1`, the body weight was 25.8 g (mouse xenograft model; dose not given, day 2, group mean).
`O=C([O-])CN1CCN(CC(=O)[O-])CCN(CC(O)CN(CC(O)CN2CCN(CC(=O)[O-])CCN(CC(=O)[O-])CCN(CC(=O)[O-])CC2)C[C@H](O)[C@@H](O)[C@H](O)[C@H](O)CO)CCN(CC(=O)[O-])CC1.[Gd+3]` (stereo partly drawn) has a log K of 4.79 (pH-potentiometry, spectrophotometry, refers to: Gd(HL)M, M = Cu2+; 25 °C, 0.15 M NaCl).
For `OC[C@@H]1[C@@H](O)[C@H](O)[C@@H](O)CN1CCCCCOCc1ccc(-c2ccccc2)cc1C(F)(F)F`, the IC50 was 200 nM (GBA1 R534H; inhibitor, 4MU-β-D-glucopyranoside; with: 4MU-β-D-glucopyranoside).
`O=C(NS(=O)(=O)c1cccs1)c1cc2ccccc2n1Cc1ccc(Br)c2ccccc12` gave a C0 of 14900 ng/mL (Sprague-Dawley rat, male, plasma; intravenous, 2 mg/kg).
For `O=CC1C(=O)Nc2ccccc21` (stereo not drawn), “pseudo-first-order rate constant” read 0 h⁻¹ (reaction with N-acetyl-lysine, HPLC-MS; pH 10.2, with: N-α-acetyl-lysine).
`CC(C)(O)c1ncc([S@](N)(=O)=NC(=O)Nc2c3c(cc4c2CCC4)CCC3)s1`: “subjects with adverse events” 2% (refers to: Psychiatric disorders; healthy human volunteers; oral, dose not given, single dose, all active arms).
For `C/C(N)=N/C(=N\S(=O)(=O)c1ccc(C(F)(F)F)cc1)N1C[C@H](c2ccccc2)C(c2ccc(Cl)cc2)=N1`, the Tmax was 120 min (male C57BL/6 mouse, brain; oral, 10 mg/kg).
`Cc1noc(C)c1Cn1cc(N2C(=O)CN(Cc3cccc(O[C@@H]4O[C@H](C(=O)O)[C@@H](O)[C@H](O)[C@H]4O)c3)C2=O)cn1` gave a plasma concentration of 2540 ng/mL (Sprague-Dawley rat, male; oral, 10 mg/kg of parent drug, 1 h).
For `C#CCOCCOCCOCCOCCn1cc(C(ONC(=O)/C=C/C(C)=C/C2(C)Oc3cc(N(C)C)ccc3C2=O)(c2ccc(C)cc2)c2ccc(C)cc2)nn1` (stereo not drawn), “release from prodrug hydrolysis” read 27% (HPLC; aqueous buffer, 20% acetonitrile; concentration not given, 300 min, pH 3; relative to: initial prodrug amount).
`OC[C@H]1N[C@H](CCCCCCOCC23CC4CC(CC(C4)C2)C3)[C@H](O)[C@@H](O)[C@@H]1O` has an IC50 of 70 nM (GBA1 R534H; inhibitor, 4MU-β-D-glucopyranoside; with: 4MU-β-D-glucopyranoside).
For `CCCCN1C(=O)c2cccc3c(NCCCCN4CCOCC4)ccc(c23)C1=O`, “fluorescence quantum yield” read 0.29 (methanol).
The Cmax of `N=C(N)NCCC[C@@H]1NC(=O)[C@H](CO)NC(=O)[C@@H](NC(=O)[C@H](CO)NC(=O)[C@H](CO)NC(=O)[C@H](Cc2c[nH]c3ccccc23)NC(=O)CNC(=O)[C@H](CO)NC(=O)[C@@H](N)Cc2c[nH]c3ccccc23)CSSC[C@@H](C(=O)NCC(=O)O)NC(=O)[C@H](CO)NC1=O` is reported as 6840 ng/mL (patients, plasma; intravenous, 10 mg/kg, thrice weekly, mean).
With `CCCCCCCCCCCCCCCC(=O)N[C@@H](CCC(=O)NCCCC[C@H](NC(=O)[C@H](C)NC(=O)[C@H](C)NC(=O)[C@H](CCC(N)=O)NC(=O)CNC(=O)[C@H](CCC(=O)O)NC(=O)[C@H](CC(C)C)NC(=O)[C@H](Cc1ccc(O)cc1)NC(=O)[C@H](CO)NC(=O)[C@H](CO)NC(=O)[C@@H](NC(=O)[C@H](CC(=O)O)NC(=O)[C@H](CO)NC(=O)[C@@H](NC(=O)[C@H](Cc1ccccc1)NC(=O)[C@@H](NC(=O)CNC(=O)[C@H](CCC(=O)O)NC(=O)[C@H](C)NC(=O)[C@@H](N)Cc1cnc[nH]1)[C@@H](C)O)[C@@H](C)O)C(C)C)C(=O)N[C@@H](CCC(=O)O)C(=O)N[C@@H](Cc1ccccc1)C(=O)N[C@H](C(=O)N[C@@H](C)C(=O)N[C@@H](Cc1c[nH]c2ccccc12)C(=O)N[C@@H](CC(C)C)C(=O)N[C@H](C(=O)N[C@@H](CCCNC(=N)N)C(=O)NCC(=O)N[C@@H](CCCNC(=N)N)C(=O)NCC(=O)O)C(C)C)[C@@H](C)CC)C(=O)O` the ALT was 49.4 ± 10.4 U/L (obese diabetic cynomolgus monkey, serum; dose not given, day 43).
`CC(C)[C@H](NC(=O)[C@H](Cc1c[nH]c2ccccc12)NC(=O)[C@H](CCCNC(=N)N)NC(=O)[C@H](CCCNC(=N)N)NC(=O)[C@@H](NC(=O)[C@@H](NC(=O)[C@H](CCCNC(=N)N)NC(=O)[C@@H](NC(=O)[C@@H](NC(=O)[C@H](CCCNC(=N)N)NC(=O)[C@H](CCCNC(=N)N)NC(=O)[C@@H](NC(=O)[C@H](Cc1c[nH]c2ccccc12)NC(=O)[C@H](CCCNC(=N)N)NC(=O)[C@H](CCCNC(=N)N)NC(=O)[C@@H](NC(=O)[C@H](CCCNC(=N)N)NC(=O)[C@H](CCCNC(=N)N)NC(=O)[C@@H](NC(=O)[C@H](Cc1c[nH]c2ccccc12)NC(=O)[C@H](CCCNC(=N)N)NC(=O)[C@@H](N)CCCNC(=N)N)C(C)C)C(C)C)C(C)C)C(C)C)C(C)C)C(C)C)C(C)C)C(=O)N[C@@H](CCCNC(=N)N)C(=O)N[C@@H](CCCNC(=N)N)C(=O)O` gave a creatinine excretion of 5.6 µg/day/g body weight (CD1 mouse, urine; intravenous, 15 mg/kg, 6 h, [14C]-labelled compound).
With `Cc1ccc(-c2cn(Cc3cccc(Cl)c3)c3[n+]2CCC3)cc1.[Br-]` the relative translation was 110% (Trypanosoma cruzi; reporter mRNA translation, inhibitor, refers to: capped polyadenylated Renilla luciferase mRNA; cell-free extract; concentration not given; relative to: control RNA).
`O=C(O)C(Cc1c[nH]cn1)N1C(=O)c2ccc3c4ccc5c6c(ccc(c7ccc(c2c37)C1=O)c64)C(=O)N(CCN1CCCCC1)C5=O` (stereo not drawn) has a logD of 2.41 (shake flask; aqueous buffer; pH 7).
Under “ΔG of binding”, `CC[C@H](C)[C@H](NC(=O)[C@H](CC(N)=O)NC(=O)[C@@H](N)CCSC)C(=O)N[C@@H](CCSC)C(=O)N[C@@H](CC(=O)O)C(=O)N[C@@H](Cc1ccccc1)C(=O)N[C@@H](CC(N)=O)C(=O)N[C@H](C(=O)N[C@@H](CCCCN)C(=O)N[C@@H](CCCCN)C(=O)N[C@@H](CC(C)C)C(=O)N[C@@H](C)C(=O)N[C@@H](C)C(=O)N[C@@H](CC(=O)O)C(=O)N[C@@H](C)C(=O)NCC(=O)N[C@H](C(=O)N[C@@H](Cc1c[nH]c2ccccc12)C(=O)N[C@@H](CC(C)C)C(=O)N[C@@H](CO)C(=O)N[C@@H](CCCNC(=N)N)C(=O)N[C@@H](C)C(=O)N[C@H](C(=O)N[C@@H](CCC(N)=O)C(=O)N[C@@H](Cc1ccccc1)C(=O)N[C@H](C(=O)N[C@@H](CCC(=O)O)C(=O)N[C@@H](CCC(=O)O)C(=O)N[C@@H](CCCCN)C(=O)N[C@@H](CC(C)C)C(=O)NCC(=O)N[C@@H](CCC(N)=O)C(=O)N[C@@H](C)C(N)=O)[C@@H](C)O)C(C)C)[C@@H](C)O)C(C)C` is recorded as -7.9 kcal/mol (circular dichroism titration; 100% DOPS liposomes; 50 µM, pH 7.4, 20 °C).

For quick reference, copied from above:
`CC(C)(O)c1ncc([S@](N)(=O)=NC(=O)Nc2c3c(cc4c2CCC4)CCC3)s1`: “subjects with adverse events” 2% (refers to: Psychiatric disorders; healthy human volunteers; oral, dose not given, single dose, all active arms).
For `C/C(N)=N/C(=N\S(=O)(=O)c1ccc(C(F)(F)F)cc1)N1C[C@H](c2ccccc2)C(c2ccc(Cl)cc2)=N1`, the Tmax was 120 min (male C57BL/6 mouse, brain; oral, 10 mg/kg).
`Cc1noc(C)c1Cn1cc(N2C(=O)CN(Cc3cccc(O[C@@H]4O[C@H](C(=O)O)[C@@H](O)[C@H](O)[C@H]4O)c3)C2=O)cn1` gave a plasma concentration of 2540 ng/mL (Sprague-Dawley rat, male; oral, 10 mg/kg of parent drug, 1 h).
For `C#CCOCCOCCOCCOCCn1cc(C(ONC(=O)/C=C/C(C)=C/C2(C)Oc3cc(N(C)C)ccc3C2=O)(c2ccc(C)cc2)c2ccc(C)cc2)nn1` (stereo not drawn), “release from prodrug hydrolysis” read 27% (HPLC; aqueous buffer, 20% acetonitrile; concentration not given, 300 min, pH 3; relative to: initial prodrug amount).
